Results pooled from the literature.
Compare with care: the assays were run in different laboratories. “And” joins repeats or separate records; there may be more than shown. ± marks the error that the study gave.
B1: CXCL16; sequence looked up; chain NEGSVTGSCYCGKRISSDSPPSVQFMNRLRKHLRAYHRCLYYTRFQLLSWSVCGGNKDPWVQELMSCLDLKECGHAYSGIVAHQKHLLPTSPPISQASEGASSDIHTPAQMLLSTLQSTQRPTLPVGSLSSDKELTRPNETTIHTAGHSLAAGPEAGENQKQPEKNAGPTARTSATVPVLCLLAIIFILTAALSYVLCKRRRGQSPQSSPDLPVHYIPVAPDSNT
UniProt P08603, sequence (whole entry, unmodified, looked up): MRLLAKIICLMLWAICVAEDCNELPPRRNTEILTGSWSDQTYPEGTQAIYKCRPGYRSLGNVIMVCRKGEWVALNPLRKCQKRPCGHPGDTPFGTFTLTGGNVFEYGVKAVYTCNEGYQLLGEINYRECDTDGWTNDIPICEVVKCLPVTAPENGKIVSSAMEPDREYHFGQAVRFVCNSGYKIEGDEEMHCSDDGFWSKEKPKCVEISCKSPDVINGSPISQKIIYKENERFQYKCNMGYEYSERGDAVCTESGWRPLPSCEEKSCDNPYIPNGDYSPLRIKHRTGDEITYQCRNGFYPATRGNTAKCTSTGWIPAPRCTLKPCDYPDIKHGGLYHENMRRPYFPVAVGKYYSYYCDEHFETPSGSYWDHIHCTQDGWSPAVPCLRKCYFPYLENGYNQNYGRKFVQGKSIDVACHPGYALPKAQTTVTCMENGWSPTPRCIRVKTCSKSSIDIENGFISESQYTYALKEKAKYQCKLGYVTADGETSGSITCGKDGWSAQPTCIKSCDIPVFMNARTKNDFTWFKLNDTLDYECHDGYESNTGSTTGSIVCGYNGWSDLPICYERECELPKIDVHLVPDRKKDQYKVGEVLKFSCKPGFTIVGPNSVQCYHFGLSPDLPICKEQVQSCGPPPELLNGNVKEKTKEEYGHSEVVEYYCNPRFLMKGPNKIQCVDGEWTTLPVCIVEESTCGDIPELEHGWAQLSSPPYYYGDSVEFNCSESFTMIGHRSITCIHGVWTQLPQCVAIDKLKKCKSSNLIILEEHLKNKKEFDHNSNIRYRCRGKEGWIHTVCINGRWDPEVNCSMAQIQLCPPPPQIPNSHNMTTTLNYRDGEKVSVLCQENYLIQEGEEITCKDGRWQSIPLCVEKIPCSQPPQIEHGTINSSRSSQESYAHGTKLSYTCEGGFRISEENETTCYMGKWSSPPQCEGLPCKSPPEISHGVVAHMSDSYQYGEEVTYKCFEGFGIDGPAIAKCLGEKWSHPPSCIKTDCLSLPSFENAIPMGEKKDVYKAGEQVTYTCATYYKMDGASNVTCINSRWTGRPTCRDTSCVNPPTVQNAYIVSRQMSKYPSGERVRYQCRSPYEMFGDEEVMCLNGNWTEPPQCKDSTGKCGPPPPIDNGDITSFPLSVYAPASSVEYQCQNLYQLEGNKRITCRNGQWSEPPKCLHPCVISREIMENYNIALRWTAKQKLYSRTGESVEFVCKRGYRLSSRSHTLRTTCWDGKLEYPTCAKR
UniProt Q8JUX6, sequence (whole entry, looked up): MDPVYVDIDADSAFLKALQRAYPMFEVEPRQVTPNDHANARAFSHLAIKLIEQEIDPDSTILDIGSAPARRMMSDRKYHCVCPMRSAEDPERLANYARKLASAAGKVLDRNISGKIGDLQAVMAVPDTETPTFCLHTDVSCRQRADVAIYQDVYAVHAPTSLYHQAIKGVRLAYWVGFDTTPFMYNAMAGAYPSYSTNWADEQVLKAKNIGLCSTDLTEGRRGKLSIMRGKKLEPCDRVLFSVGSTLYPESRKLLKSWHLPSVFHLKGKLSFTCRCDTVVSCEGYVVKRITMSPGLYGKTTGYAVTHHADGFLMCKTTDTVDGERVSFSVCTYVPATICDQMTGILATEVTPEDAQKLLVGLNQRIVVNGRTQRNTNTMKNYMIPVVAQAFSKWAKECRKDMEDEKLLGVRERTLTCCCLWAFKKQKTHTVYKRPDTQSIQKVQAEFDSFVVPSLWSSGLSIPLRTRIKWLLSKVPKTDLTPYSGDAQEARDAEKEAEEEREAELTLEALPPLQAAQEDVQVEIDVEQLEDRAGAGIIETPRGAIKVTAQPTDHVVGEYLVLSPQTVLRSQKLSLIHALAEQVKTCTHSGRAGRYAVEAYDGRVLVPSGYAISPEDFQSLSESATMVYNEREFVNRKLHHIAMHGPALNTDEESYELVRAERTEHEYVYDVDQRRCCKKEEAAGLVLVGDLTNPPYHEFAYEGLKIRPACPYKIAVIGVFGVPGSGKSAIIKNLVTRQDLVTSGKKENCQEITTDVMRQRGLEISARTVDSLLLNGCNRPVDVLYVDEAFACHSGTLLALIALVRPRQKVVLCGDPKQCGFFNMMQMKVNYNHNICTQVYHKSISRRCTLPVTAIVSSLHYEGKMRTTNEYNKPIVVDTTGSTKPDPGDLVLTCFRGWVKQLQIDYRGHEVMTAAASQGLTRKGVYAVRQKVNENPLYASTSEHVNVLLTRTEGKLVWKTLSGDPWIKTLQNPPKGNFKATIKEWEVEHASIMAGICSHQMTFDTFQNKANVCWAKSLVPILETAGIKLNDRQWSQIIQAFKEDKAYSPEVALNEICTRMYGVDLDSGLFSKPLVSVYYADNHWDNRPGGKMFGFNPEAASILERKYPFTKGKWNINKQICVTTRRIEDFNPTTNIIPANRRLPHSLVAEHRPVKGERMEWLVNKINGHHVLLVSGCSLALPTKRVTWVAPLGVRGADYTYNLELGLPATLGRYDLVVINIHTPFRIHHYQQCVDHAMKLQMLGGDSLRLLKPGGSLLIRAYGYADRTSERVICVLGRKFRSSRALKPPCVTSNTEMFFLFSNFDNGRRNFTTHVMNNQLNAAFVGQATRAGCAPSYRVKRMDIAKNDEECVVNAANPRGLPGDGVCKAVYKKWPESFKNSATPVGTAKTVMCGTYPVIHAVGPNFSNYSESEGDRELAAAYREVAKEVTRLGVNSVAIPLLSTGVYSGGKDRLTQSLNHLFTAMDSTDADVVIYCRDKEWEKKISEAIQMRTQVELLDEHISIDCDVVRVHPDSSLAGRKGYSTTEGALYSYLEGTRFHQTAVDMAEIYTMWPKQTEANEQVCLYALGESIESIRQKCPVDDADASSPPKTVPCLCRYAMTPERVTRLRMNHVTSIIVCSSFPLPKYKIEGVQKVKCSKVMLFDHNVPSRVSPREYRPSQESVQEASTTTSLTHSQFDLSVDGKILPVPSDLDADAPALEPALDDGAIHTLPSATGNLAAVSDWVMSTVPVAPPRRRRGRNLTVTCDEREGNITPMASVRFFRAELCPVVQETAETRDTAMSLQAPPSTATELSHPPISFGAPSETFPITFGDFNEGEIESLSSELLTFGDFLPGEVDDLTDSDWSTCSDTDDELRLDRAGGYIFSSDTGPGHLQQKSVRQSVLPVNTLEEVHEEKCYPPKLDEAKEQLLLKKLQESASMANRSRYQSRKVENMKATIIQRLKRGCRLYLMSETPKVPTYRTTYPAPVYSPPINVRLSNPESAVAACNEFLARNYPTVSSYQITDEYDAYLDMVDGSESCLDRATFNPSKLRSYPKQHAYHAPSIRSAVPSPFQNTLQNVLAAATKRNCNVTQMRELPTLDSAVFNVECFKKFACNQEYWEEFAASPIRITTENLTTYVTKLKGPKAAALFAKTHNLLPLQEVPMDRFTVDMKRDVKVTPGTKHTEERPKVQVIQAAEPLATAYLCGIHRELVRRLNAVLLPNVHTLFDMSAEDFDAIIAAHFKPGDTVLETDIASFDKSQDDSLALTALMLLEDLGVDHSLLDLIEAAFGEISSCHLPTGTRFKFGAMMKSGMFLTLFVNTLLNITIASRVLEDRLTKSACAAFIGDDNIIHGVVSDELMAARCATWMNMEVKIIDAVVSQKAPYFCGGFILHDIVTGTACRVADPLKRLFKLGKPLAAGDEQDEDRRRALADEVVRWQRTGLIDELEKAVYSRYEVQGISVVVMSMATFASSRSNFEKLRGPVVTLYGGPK

| Substance | target or system | assay | system | conditions | scale | endpoint | result |
| --- | --- | --- | --- | --- | --- | --- | --- |
| YISPQYYGETWVTTIG | Polyprotein P1234, nsP2 protease domain (Chikungunya virus, UniProt Q8JUX6) | binding, phage display | peptide | – | direction not given | enrichment score | 104 |
| AaH I scorpion toxin | rat Nav1.2a VSD IV paddle peptide | surface plasmon resonance | – | 100 nM, pH 7.2, 25 °C, 0.1% BSA | – | SPR binding response | 40 to 60 RU |
| ILKEPVHGAY | KIR2DL2+ 2DS2+ 2DL3− NK cells | NK cell response | peptide, human | concentration not given, added: peptide-pulsed RMA-S cells | reference: no peptide | relative reactivity | 92.2% and 88.4% and 77.6% |
| COc1ncncc1-c1cn([C@@H]2O[C@](F)(COC(=O)C(C)C)[C@@H](OC(=O)C(C)C)[C@H]2OC(=O)C(C)C)cn1 | Zaire ebolavirus | viral replication, reporter virus | Huh-7 | 72 h | – | IC50 | 21.3 µM |
| GTCTTTAATAATTAAACTAGTGTCTTGACAGATGTAAACAACAGGTATAAAC (dsDNA) | niaR 1-174 K28A (Streptococcus mutans, UniProt Q8DVX8) | EMSA | double-stranded DNA, one strand shown | – | – | binding | binds |
| CCOc1nc(N)ncc1-c1cn([C@@H]2O[C@](F)(CO[P@@](=O)(N[C@@H](C)C(=O)OC(C)C)Oc3ccccc3)[C@@H](OC(=O)C(C)C)[C@H]2OC(=O)C(C)C)cn1 | Zaire ebolavirus | viral replication, reporter virus | Huh-7 | 72 h | – | IC50 | 68.5 µM |
| VATSRTLSY | – | – | peptide, tetramer-reactive CD8+ T cells, unexposed HLA-A*02:01 subjects | – | – | number of clonotypes | 0 |
| trehalose dimycolate | – | flow cytometry | C57BL/6 mice, lung | intravenous, 100 µg, day 5 | reference: vehicle | monocyte and immature macrophage increase | 21 ± 2.2% |
| COc1ncc(-c2cn([C@@H]3O[C@](F)(CO[P@@](=O)(N[C@@H](C)C(=O)OC(C)C)Oc4ccccc4)[C@@H](OC(=O)C(C)C)[C@H]3OC(=O)C(C)C)cn2)cn1 | Zaire ebolavirus | viral replication, reporter virus | Huh-7 | 72 h | – | IC50 | 19.6 µM |
| B1 (CXCL16) | Human immunodeficiency virus 1 | TZM-bl readout | PHA-stimulated human PBMCs, CXCR4-tropic | 500 ng/mL | – | viral replication | no effect |
| autoinducing peptide I | AgrC-I G394A G396A (Staphylococcus aureus) | reporter gene, agonist | Staphylococcus aureus P3-blaZ reporter, Staphylococcus aureus | – | – | EC50 | > 10 µM |
| KRVDWTIEY | – | – | peptide, tetramer-reactive CD8+ T cells, COVID-19 convalescent HLA-B*07:02 subjects | – | – | number of clonotypes | 3 |
| Cc1cccc(NC(=O)C[S+]([O-])c2nc(-c3ccccc3)cn2-c2ccc(Cl)cc2)c1C (racemic) | Middle East respiratory syndrome-related coronavirus | viral entry | – | – | – | IC50 | 17.1 µM |
| FASEAARVV | – | T cell recognition, HLA-B*07:02 tetramer staining | peptide, CD8+ T cells, COVID-19 convalescent human subjects, HLA-B*07:02 | dose not given, 5 subjects tested | – | tetramer-reactive CD8+ T cell count | 2 |
| (±)-nornicotine | Haemonchus contortus | larval migration | Weybridge susceptible L3 | 20 min | – | IC50 | 775 ± 36.4 µM |
| CCOc1nc(N)ncc1-c1cn([C@@H]2O[C@](F)(COC(=O)C(C)C)[C@@H](OC(=O)C(C)C)[C@H]2OC(=O)C(C)C)cn1 | Zaire ebolavirus | viral replication, reporter virus | Huh-7 | 72 h | – | IC50 | 85.6 µM |
| ELPDEFVVVTV | – | – | peptide, tetramer-reactive CD8+ T cells, COVID-19 convalescent HLA-A*02:01 subjects | – | – | number of clonotypes | 60 |
| Dengue virus E protein virion, UV-inactivated (Dengue virus serotype 2) | PLG kringle 5, 461-544 (Homo sapiens) | BLI | – | – | – | Kd | 0.0564 µM |
| cbpA fragment (Streptococcus pneumoniae) | CFH 508-567 (Homo sapiens, UniProt P08603) | ITC | – | – | – | ΔH | -21.1 ± 0.67 kcal/mol |
| quinacrine mustard | Dengue virus type 2 | viral replication, Rluc reporter replicon | BHK-21 with DENV2 replicon | 24 h | – | EC50 | 0.39 ± 0.1 µM |
| TTTATAAAAAACCAATATATGTCTTGACACATGTAAAAAACGTTGTATAATG (dsDNA) | niaR 1-174 T17A (Streptococcus mutans, UniProt Q8DVX8) | EMSA | double-stranded DNA, one strand shown | – | – | binding | binds |
| TFFRLFNRSFTGRRRRSVQWCA | Streptococcus mutans | 2D-DIGE, measured: N-acetylglucosamine-6-phosphate isomerase | peptide, UA159 | 20 µg/mL, 1 h | reference: water control | protein level ratio | -6.09 |

For quick reference, copied from above:
| Substance | target or system | assay | system | conditions | scale | endpoint | result |
| --- | --- | --- | --- | --- | --- | --- | --- |
| ILKEPVHGAY | KIR2DL2+ 2DS2+ 2DL3− NK cells | NK cell response | peptide, human | concentration not given, added: peptide-pulsed RMA-S cells | reference: no peptide | relative reactivity | 92.2% and 88.4% and 77.6% |
